Experimental data pooled from the literature.
Lines come from different studies, so protocols differ.
Target: Tyrosine-protein kinase Mer (MERTK, Homo sapiens, UniProt Q12866)

Structure (SMILES) | test | setting | scale | quantity | value
Cc1cc(NC(=O)[C@H](O)c2cc(F)cc(F)c2)ccc1-c1cnc(N)c(C(=O)NC(C)C)c1 | binding, competition with immobilised ligand | 10 µM |  | remaining binding | 59%
CCN1CCN(Cc2ccc(C(=O)Nc3ccc(C)c(NCc4cnc5[nH]ccc5c4OC)c3)cc2C(F)(F)F)CC1 | binding, competition with immobilised ligand | 1 µM |  | remaining binding | 46%
C=CC(=O)N1Cc2nc(-c3cc(-c4cc(Cl)cnc4Cl)c(F)cc3F)n(-c3ccncn3)c2C1 | cell-free assay, inhibitor | 1 µM |  | inhibition | 7.4%
COc1c(Cl)cccc1Nc1c(-c2ccncc2C#C[C@@]2(C)CCCN2C(=O)/C=C/CN(C)C)[nH]c2c1C(=O)NCC2 | binding, competition with immobilised ligand | 3 µM |  | remaining binding | 100%
C=CC(=O)Nc1cccc(-c2cnc3[nH]cc(C(=O)NC(C)(C)C)c3n2)c1 | enzyme activity, inhibitor | 0.1 µM |  | inhibition | 13%
O=C(Nc1ccc(Oc2ncnc3[nH]cc(-c4ccccc4)c23)c(F)c1)c1c2n(n(-c3cc(F)ccc3F)c1=O)CCCC2 | enzyme activity, inhibitor | 0.5 µM |  | inhibition | 96%
Cc1cccc(O[C@H]2CCC[C@@H](C(C)CNCc3ccncc3)C2)c1 (relative stereo) | enzyme activity, inhibitor | 1 µM |  | inhibition | 5%
COc1ccc(NC(=O)Nc2ccc3c(c2)C(=O)N(C(C)CO)CC(C)C(CN(C)Cc2ccc4c(c2)OCO4)O3)cc1 (stereo not shown) | kinase activity, KinaseProfiler | 0.03 µM, species human | reference: control | remaining activity | 103%
CN1CC[C@@H](COc2cnc(C#N)cc2-c2ccn3nc(NC(=O)C4CC4)cc3c2)C1 | enzyme activity, inhibitor | 1 µM |  | inhibition | 16%
NC(=O)C[C@H]1CCc2sc3ncnc(O[C@H]4CC[C@H](N5CCOCC5)CC4)c3c21 | enzyme activity, inhibitor | 10 µM |  | inhibition | 21%
Nc1ncc2c(n1)-c1c([nH]c3ccc(C4=CCOCC4)cc13)CCC2 | binding, competition with immobilised ligand | 1 µM |  | remaining binding | 62%
O=C=[N][Ru-4]123([n]4c5ccc(O)cc5c5c6c(c7cc(F)c[n+]1c7c54)C(=O)NC6=O)[S+]1CC[S+]2CC[S+]3CC1 (stereo not shown) | enzyme activity | 100 nM, human enzyme, added: 10 µM ATP | reference: untreated | remaining activity | 19%
Cc1cnc2nc1Nc1cccc(c1)COC/C=C/COCc1cc(ccc1OCCN1CCOCC1)N2 | binding | 0.1 µM |  | remaining binding | 24%
CCn1cc(C(=O)O)c(=O)c2c(N)c(F)c(NC3CCCCC3)cc21 | kinase activity | 0.1 µM, added: ATP at Km |  | inhibition | 4%
C=CC(=O)N1CCc2ccc(-n3c(=O)ccc4cnc5ccc(-c6cnn(C)c6)cc5c43)cc21 | KINOMEscan | 1 µM | reference: DMSO control | remaining binding | 78%
COc1cc(Nc2nc(C)cc(-c3cnn4nc(OC)ccc34)n2)cc(C(F)(F)F)c1 | inhibitor | 1 µM | reference: control | remaining activity | 98%

Repeated from above:
Structure (SMILES) | test | setting | scale | quantity | value
O=C=[N][Ru-4]123([n]4c5ccc(O)cc5c5c6c(c7cc(F)c[n+]1c7c54)C(=O)NC6=O)[S+]1CC[S+]2CC[S+]3CC1 (stereo not shown) | enzyme activity | 100 nM, human enzyme, added: 10 µM ATP | reference: untreated | remaining activity | 19%
Cc1cnc2nc1Nc1cccc(c1)COC/C=C/COCc1cc(ccc1OCCN1CCOCC1)N2 | binding | 0.1 µM |  | remaining binding | 24%
